Published values gathered from unrelated publications.
Compare with care: the assays were run in different laboratories.

SMILES	tested on	assay	system	setting	how to read	quantity	result
O=C1N=C(N2CCN(c3ccccc3)CC2)S/C1=C\c1ccccc1O	NG108-cl	clomeleon fluorescence, refers to: intracellular chloride reduction	–	5 h	–	EC50	inactive
CCn1cc(-c2cc(Cn3ccoc3=N)cc3c2CCN([C@@H](C)c2cc(OC)ccn2)C3=O)c(C(F)(F)F)n1	LS-123	cell growth, inhibitor	–	120 h	–	EC50	0.857 nM
OCCN(CCO)c1nc(N2CCCCC2)c2nc(N(CCO)CCO)nc(N3CCCCC3)c2n1	Jurkat T cells, FKBP12 knock-out	[3H]-thymidine incorporation, inhibitor	–	3 h	–	EC50	89.8 nM
C[C@H](Nc1ccc2c(c1)OCCn1cc(N3C(=O)OC[C@H]3C(F)F)nc1-2)C(N)=O	HCC1954 PIK3CA H1047R	cell viability, ATP luminescence	–	120 h	–	EC50	40.8 nM
O=C1N=C(N2CCCCN2)S/C1=C\c1ccc(F)cc1OC(=O)N1CCCC1	NG108-cl	clomeleon fluorescence, refers to: intracellular chloride reduction	–	5 h	–	EC50	inactive
O=C(c1cc(Cc2n[nH]c(=O)c3ccccc23)ccc1F)N1CCN(C(=O)C2CC2)CC1	MEF PTEN+/-	cell proliferation, CellTiter-Glo	–	168 h	–	EC50	2000 nM
CCn1cc(-c2cc(Cn3ccnc3)cc3c2CCN([C@H](c2cc(OC)ccn2)C2CC2)C3=O)c(C(F)(F)F)n1	RERF-LC-MS	cell growth, inhibitor	–	120 h	–	EC50	9010 nM
CC(=O)N[C@@H](CSC(=O)[C@]1([C@@H](O)C(C)C)NC(=O)[C@H](C)[C@@H]1O)C(=O)O	LDR	silenced CMV-GFP reporter derepression, qHTS	–	–	–	EC50	2510 nM
Nc1ccn([C@H]2C[C@H](O)[C@@H](COP(=O)(O)OP(=O)(O)OP(=O)(O)O)O2)c(=O)n1	–	binding, MIDAS equilibrium dialysis LC-MS	A2AR-BRIL thermostabilized	concentration not given	baseline: no-protein control	log2 fold change	-0.398
Cc1nc(/C=C2\SC(N3CCCCC3)=NC2=O)c(C)s1	NG108-cl	clomeleon fluorescence, refers to: intracellular chloride reduction	–	5 h	–	EC50	inactive
CCC(C)(C)C(=O)C(=O)N1CCCC[C@H]1C(=O)N[C@H](CCc1ccc(OC)cc1)C(=O)N1[C@@H]2CC[C@H]1C[C@H](Nc1nc(NCCc3sc(N)nc3C)nc(N3CCn4ncnc4C3)n1)C2	GFP-LC3 HeLa	GFP-LC3 puncta formation	–	–	–	EC50	12000 nM
C[C@]12CCCN1CC1=NNC(=O)c3cc(F)cc4[nH]c2c1c34	T84 colorectal cancer cells	cell viability	–	concentration not given, added: with temozolomide	–	EC50	> 3000 nM
COc1cnc2cccc(N3CCc4c(cc(Cn5ccnc5C)cc4-c4cn(C)nc4C(F)(F)F)C3=O)c2c1	LS-123	cell growth, inhibitor	–	120 h	–	EC50	17600 nM
O=C1N=C(N2CCCCC2)S/C1=C\C1CCCC1	NG108-cl	clomeleon fluorescence, refers to: intracellular chloride reduction	–	5 h	–	EC50	inactive
CC(=O)N[C@@H]1[C@@H](O)[C@H](O)[C@@H](CO)O[C@@H]1O	–	binding, MIDAS equilibrium dialysis LC-MS	A2AR-BRIL thermostabilized	concentration not given	baseline: no-protein control	log2 fold change	-0.117

A few entries again:
SMILES	tested on	assay	system	setting	how to read	quantity	result
Cc1nc(/C=C2\SC(N3CCCCC3)=NC2=O)c(C)s1	NG108-cl	clomeleon fluorescence, refers to: intracellular chloride reduction	–	5 h	–	EC50	inactive
CCn1cc(-c2cc(Cn3ccoc3=N)cc3c2CCN([C@@H](C)c2cc(OC)ccn2)C3=O)c(C(F)(F)F)n1	LS-123	cell growth, inhibitor	–	120 h	–	EC50	0.857 nM
